# Measured values collected from several papers.
# Numbered parts are unrelated; each lists some results of a single study. Changes are numbered by the printed parent chain.

# Study 1
# Target: RNA binding protein fox-1 homolog 2, RRM domain, GST-SBP tag (RBFOX2, Homo sapiens, UniProt O43251-10, residues 100-194)
# Technique: RNA Bind-n-Seq
# Molecule type: RNA
# Medium: in vitro
# Tested at: 365 nM
# Notes: natural RNA segment, single round, ends assumed
# Reference: no-protein control
# Reading: higher = stronger binding
# All sequences stand within: GGGAGUUCUACAGUCCGACGAUC … UGGAAUUCUCGGGUGCCAA
# Construct (chain): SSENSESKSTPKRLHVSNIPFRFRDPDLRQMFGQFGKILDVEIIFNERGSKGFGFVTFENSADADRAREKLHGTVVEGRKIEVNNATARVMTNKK
Oligonucleotide,RBNS enrichment (R)
UAAUUGCUAUUUACUAUUUAAAAAGUUUUACUGAAAUCAGUCCAUAACAUUAAGAUGAGCCCUAAUAUGUAAGAUUUUCCUCUGGAAUGGAUGUGAGAAAUGUAAAUUUU,0.761
AGCGGGCAGGAACUCUAGCCACCUUUCUCUGUUACCUGCAGCUGAUUGGCAAGGCUCCUAUGGAGCUCCCAGAAGCCUCAGCUAGGAAAAUGAGCCCUCACUUCAGCCUG,0.64
UGACCUUUAUUGAAUCUGAAAUGAUACAUAGCUGUGUGUGUAUAUAUAUUUUUUAAAAAUAGGUUCAUUGAACAUAAAUCAGAUUGUUUGAGGUCAUUUUUCAGCAACAU,0.759
UCUUUGUUUUCUAAUGCAAUAUGUGCCUCUUCCCCUCGCUGAACCUCUAAGACAUAUGUAUUUCACACUAGAUGGCGUCGGACAUUGCCAUAUCUCCUGUGGCACCUAGG,0.365
UGAGACCUGCUCAUCGUGCGACUGUAACCCUUCAGUCCUAGCUGCUUUUGAAGAGGUUUCCAUUUUUAUUUAAAUUGCUAAUGGAUCAGAGAACAAUUGUUUAUUUUUUC,0.755
ACUGAUGAUUCCUGCAAAAAUAUAAUCGAAGUUUUCCAUCAAAUGUAUAAUAUGCUAUUAAUACACAUUAGAUGAUAACAGUUGUUCCAUGAAUGAUUCUAUGAAGCUAU,0.616
CCAUCCUACUAUAAUAAAUUUUGCACCCACACACAAGUACACAGUUUGCUGUUUUAGAAAGUGAUUCUACAAUCUCGGCUGUCAGGACAGCUGGGAUGCUUACUGUGAAA,0.738
AAUAACUAGCUGGGAAAAGACGAUGUAAUUAUUUCGGGGCUCUGCGGAACCUUCUCUGUACAGCGCCCCCUUUCUGUUGUGCUAUUGGUUGCAGCUGCCAUGCUCAGAAU,0.385
UCAACGGGCUGGGCUGGGUAUGUGCCUACCGAUGACAAUGUGUAAAUAAAUGCGUGUUCACACCCACGCUGGCUCCGUUACUCUCCUGAGCUGGGGGUGGGGGGAUCGGG,1.08
UUAGAAAAUGAAGCAGUAGAAACAAAACCUUUAUUAGUAUGGUAUUCCAGCAGCACCUUUAAAGCAAUCUUUACCUUAGUUUUUUGAGUUGUUUUACCUUUCAUCCCAAU,0.385
AUAAGUCUCACGAGAUCUGAUGGUUUAAUAAGGGGUUUCCCCUUUUGCUUGGCUCUCAUUCUCUCUUGUCUGCUGCCAUGUAAGAUGUGCCUUUUGCCUUCCACCAUGAU,0.358
GUUCAUUCUUAGAACCAAGGGAAAUACUGCUCCCCCCAUUUGCUGACGUAGUGCUCUCAUGGGCUCACCUGGGCCCAAGGCACAGCCAGGGCACAGUUAGGCCUGGAUGU,0.341

# Study 2
# Target: ABI1, truncated, D143A, DHFR fusion (Arabidopsis thaliana)
# Technique: DHFR PCA, deep sequencing
# Medium: yeast
# Notes: methotrexate growth selection, single substitutions
# Added: (+)-ABA 1.4 µM
# Reference: wild-type fitted maximum
# Reading: higher = stronger binding
# Parent: PYL1, truncated, DHFR fusion (Arabidopsis thaliana); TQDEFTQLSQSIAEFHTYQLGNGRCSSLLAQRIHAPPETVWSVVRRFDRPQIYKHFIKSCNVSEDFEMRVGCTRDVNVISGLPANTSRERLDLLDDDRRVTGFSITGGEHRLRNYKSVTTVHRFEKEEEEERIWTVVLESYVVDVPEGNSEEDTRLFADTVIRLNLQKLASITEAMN
Substitution,relative binding score [%]
V136R,2.97
A175Q,54.5
I79Y,49.5
R98W,8.86
R99V,-11.4
S42K,56.8
A30P,-13.4
V121A,12
N165T,13.1
R69E,48.7
M176D,42.7

# Study 3
# Target: UBE2I UBC core domain (UniProt P63279)
# Technique: yeast two-hybrid
# Medium: yeast
# Notes: mostly zero background
# Reference: not given
# Reading: higher = stronger interaction
# B1: MID2 RING domain (UniProt Q9UJV3); chain KMETLESELTCPICLELFEDPLLLPCAHSLCFSCAHRILVSSCSSGESIEPITAFQCPTCRYVISLNHRGL
# B2: RUFY1 RING domain (UniProt Q96T51); chain QALKGHAWLKDDEATHCRQCEKEFSISRRKHHCRNCGHIFCNTCSSNELALPSYPKPVRVCDSCHTLLLQRCSSTAS
# B3: ZNRF4 RING domain (UniProt Q8WWF5); chain VRTFTWHNDLCAICLDEYEEGDQLKILPCSHTYHCKCIDPWFSQAPRRSCPVCKQSVAATEDSF
# B4: MKRN3 RING domain (UniProt Q13064); chain FAVQRGMDKVCGICMEVVYEKANPNDRRFGILSNCNHSFCIRCIRRWRSARQFENRIVKSCPQCRVTSELVIPSE
# B5: NFX1 RING domain (UniProt Q12986); chain IEQLTTEKYECMVCCELVRVTAPVWSCQSCYHVFHLNCIKKWARSPASQADGQSGWRCPACQNVSAHVPNTY
# B6: RNF103 RING domain (UniProt O00237); chain WPADMLHCTECVVCLENFENGCLLMGLPCGHVFHQNCIVMWLAGGRHCCPVCRWPSYKKKQPY
# B7: MARCHF1 RING domain (UniProt Q8TCQ1); chain TAPRSQSRLSVCPSTQDICRICHCEGDEESPLITPCRCTGTLRFVHQSCLHQWIKSSDTRCCELCKYDFIMETKLKPLRKWE
# B8: RNF6 RING domain (UniProt Q9Y252); chain NSIDSELGKICSVCISDYVTGNKLRQLPCMHEFHIHCIDRWLSENCTCPICRQPVLGSNIAN
# B9: VPS8 RING domain (UniProt Q8N3P4); chain TRGLNPKQDYCSICLQQYKRRQEMADEIIVFSCGHLYHSFCLQNKECTVEFEGQTRWTCYKCSSSNKVGKLSE
Molecule,lacZ reporter activity
B1 (MID2 RING domain),0
B2 (RUFY1 RING domain),0
LEALSSDFLACKICLEQLRAPKTLPCLHTYCQDCLAQLADGGRVRCPECRETVPVPPEGV (TRIM56 RING domain (UniProt Q9BRZ2)),0
B3 (ZNRF4 RING domain),0
FAEQPSVKLCCQLCCSVFKDPVITTCGHTFCRRCALKSEKCPVDNVKLTVVVNNI (TRAF7 RING domain (UniProt Q6Q0C0)),0
ASEEEFQFLRCQQCQAEAKCPKLLPCLHTLCSGCLEASGMQCPICQAPWPLGADTP (PML RING domain (UniProt P29590)),0
B4 (MKRN3 RING domain),0
B5 (NFX1 RING domain),0
B6 (RNF103 RING domain),0
B7 (MARCHF1 RING domain),0
B8 (RNF6 RING domain),0
B9 (VPS8 RING domain),0

# Study 4
# Target: CCND1, cyclin fold, Cln2 fusion (human)
# Technique: yeast growth competition, sequencing
# Medium: yeast
# Notes: weak parent motif
# Reference: not given
# Reading: higher = stronger binding
# Parent: BRCA2 docking peptide (human); PSIKRNLLNEFDR
Substitution,normalised enrichment score
PSIKRNLLNEFDG [R13G],0.968
PSIKRNLLNAFDR [E10A],0.273
PSIKRNLLNELDR [F11L],0.0859
PSILRNLLNEFDR [K4L],0.489
PSIKRNLFNEFDR [L8F],0.543
PSIKRNLLYEFDR [N9Y],0.946
PSIKRNALNEFDR [L7A],0.171
PSIKRNLTNEFDR [L8T],0.454
PSIKRNLLTEFDR [N9T],0.482
PSIDRNLLNEFDR [K4D],0.258
PSHKRNLLNEFDR [I3H],0.113
PSIKRNLLNIFDR [E10I],0.795
PSIIRNLLNEFDR [K4I],-0.149
PSIKRNLWNEFDR [L8W],-0.304
PSAKRNLLNEFDR [I3A],1.75
PSIKRNLLNECDR [F11C],-0.668
MSIKRNLLNEFDR [P1M],-0.0475
PSLKRNLLNEFDR [I3L],0.849
PSIKRNLLNEFDS [R13S],1.02

# Study 5
# Molecule: H2BC12 (Homo sapiens, UniProt O60814)
# Technique: cross-linking MS
# Notes: hits only
partner,interaction screen
"H2BC5 (Homo sapiens, UniProt P58876)",cross-linked
"H2AC18 (Homo sapiens, UniProt Q6FI13)",cross-linked
"UBC (Homo sapiens, UniProt P0CG48)",cross-linked
"H2AC25 (Homo sapiens, UniProt Q7L7L0)",cross-linked
"H2AZ1 (Homo sapiens, UniProt P0C0S5)",cross-linked
"H1-4 (Homo sapiens, UniProt P10412)",cross-linked

# Some of these lines once more (study 3):
Molecule,lacZ reporter activity
B3 (ZNRF4 RING domain),0
FAEQPSVKLCCQLCCSVFKDPVITTCGHTFCRRCALKSEKCPVDNVKLTVVVNNI (TRAF7 RING domain (UniProt Q6Q0C0)),0
ASEEEFQFLRCQQCQAEAKCPKLLPCLHTLCSGCLEASGMQCPICQAPWPLGADTP (PML RING domain (UniProt P29590)),0
B4 (MKRN3 RING domain),0
B5 (NFX1 RING domain),0
B6 (RNF103 RING domain),0
B7 (MARCHF1 RING domain),0
B8 (RNF6 RING domain),0
B9 (VPS8 RING domain),0
